Experimental data from different studies.
A part holds a random share of what one study measured. Positions count from the first letter of the parent shown.

Block 1
Target: ABI1, truncated, D143A, DHFR fusion (Arabidopsis thaliana)
Method: DHFR PCA, deep sequencing
Medium: yeast
Setting: methotrexate growth selection, single substitutions
Together with: (+)-ABA 0.032 µM
Reference: wild-type fitted maximum
Direction: higher = stronger binding
Starting sequence: PYL1, truncated, DHFR fusion (Arabidopsis thaliana); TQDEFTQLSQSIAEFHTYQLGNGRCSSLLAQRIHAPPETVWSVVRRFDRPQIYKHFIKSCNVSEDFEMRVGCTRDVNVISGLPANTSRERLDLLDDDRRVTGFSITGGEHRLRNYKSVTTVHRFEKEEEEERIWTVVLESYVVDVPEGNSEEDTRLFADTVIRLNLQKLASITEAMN; partner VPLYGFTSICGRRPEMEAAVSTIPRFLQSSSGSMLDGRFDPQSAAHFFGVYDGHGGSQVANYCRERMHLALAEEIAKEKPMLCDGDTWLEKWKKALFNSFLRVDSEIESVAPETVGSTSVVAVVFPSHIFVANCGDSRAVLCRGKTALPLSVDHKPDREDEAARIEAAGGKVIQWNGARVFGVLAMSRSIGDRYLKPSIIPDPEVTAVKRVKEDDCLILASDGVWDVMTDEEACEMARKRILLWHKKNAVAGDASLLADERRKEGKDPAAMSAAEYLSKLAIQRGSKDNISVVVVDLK
| Change | relative binding score [%] |
| --- | --- |
| R123H | 31.2 |
| S26R | 1.98 |
| Q31I | -0.919 |
| D65E | 10.4 |
| E14A | 0.487 |
| I33V | 7.59 |
| W134G | 15.4 |
| S171L | 16.6 |
| S117C | -0.85 |
| A35Y | -2.92 |
| E38D | 23.4 |
| A30C | 13 |
| T120Q | 0.515 |
| G81S | 32.6 |
| Y53P | -1.72 |
| S11H | 10.1 |
| F66T | 19.6 |
| H122Q | -6.18 |
| H55M | 26.6 |

Block 2
Target: CCNF, cyclin fold, Cln2 fusion (human)
Method: yeast growth competition, sequencing
Medium: yeast
Setting: strong parent motif
Reference: not given
Direction: higher = stronger binding
Starting sequence: BRCA2 docking peptide (human); PSIKRNLLNEFDR
| Change | normalised enrichment score |
| --- | --- |
| PSIKRNLLNEPDR [F11P] | 0.227 |
| PSHKRNLLNEFDR [I3H] | 1.82 |
| PSKKRNLLNEFDR [I3K] | 1.79 |
| PSIKRNLLNEFDH [R13H] | 1.33 |
| PSIKRNLKNEFDR [L8K] | 1.02 |
| PSIKRNKLNEFDR [L7K] | 0.369 |
| PSIPRNLLNEFDR [K4P] | 0.368 |
| QSIKRNLLNEFDR [P1Q] | 4.38 |
| PSIKRNLLNEFHR [D12H] | 1.95 |
| PSIKRNLLMEFDR [N9M] | 4.86 |
| PSIKFNLLNEFDR [R5F] | 0.585 |
| HSIKRNLLNEFDR [P1H] | 3.66 |
| PSIKRNLRNEFDR [L8R] | -0.124 |
| PSIERNLLNEFDR [K4E] | 0.285 |
| PSIKRNLLNEFIR [D12I] | 2.19 |
| PSINRNLLNEFDR [K4N] | 3.44 |
| PSIKRNLLNEFDV [R13V] | 1.94 |
| PSIKRQLLNEFDR [N6Q] | 2 |

Block 3
Target: CREBL2, bZIP domain (human)
Method: DHFR protein complementation
Medium: yeast
Setting: single substitutions, most at no-binding floor
Reference: wild-type JUN-FOS pair
Direction: higher = stronger binding
Starting sequence: JUN, bZIP domain (human); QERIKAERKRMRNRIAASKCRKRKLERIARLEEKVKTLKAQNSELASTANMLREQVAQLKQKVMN; partner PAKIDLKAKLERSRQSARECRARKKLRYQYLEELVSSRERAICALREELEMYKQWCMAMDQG
| Change | binding fitness |
| --- | --- |
| N42A | -1.38 natural log |
| A49R | -1.24 natural log |
| K36H | -1.44 natural log |
| L52P | -1.47 natural log |
| A46F | -1.54 natural log |
| Q41D | -1.4 natural log |
| Q55E | -1.5 natural log |
| E33R | -1.54 natural log |
| R30P | -1.33 natural log |
| L38Y | -1.56 natural log |
| V35P | -1.51 natural log |
| E44T | -1.51 natural log |
| S47E | -1.56 natural log |
| L31W | -1.64 natural log |
| E33G | -1.49 natural log |
| L31R | -1.53 natural log |
| V56Q | -1.39 natural log |
| A57G | -1.45 natural log |
| A29Y | -1.47 natural log |
| A57K | -1.46 natural log |
| T48I | -1.6 natural log |
| V35W | -1.38 natural log |
| L31F | -1.52 natural log |
| E44C | -1.26 natural log |
| L38V | -1.41 natural log |

Block 4
Target: Interferon regulatory factor 5, full length, phosphomimetic (IRF5, Homo sapiens, UniProt Q13568-2, residues 1-514, K96S/S451D/S453D/S456D/S462D)
Method: protein-binding microarray
Molecule type: double-stranded DNA, one strand shown
Medium: in vitro
Concentration: 250 nM
Setting: 60-bp whole probe
Together with: salmon DNA 0.4 mg/ml
Reference: random background probes
Direction: higher = stronger binding
All sequences stand within: GCCTAGCAC … GTCTTGATTCGCTTGACGCTGCTG
| Sequence | log fluorescence [z-score] |
| --- | --- |
| TTAGGACTGAGTATCGATTAGTGCTAG | 6.33 |
| TTTGGACACAGACACAGGCCGTGCTAG | -0.108 |
| GACGGACTGCTACTACTGACGTGCTAG | -0.415 |
| TTAGTTATCGACTATCGGTTAGTGCTA | 7.91 |
| GACGGTTTCCATATCCTGACGTGCTAG | 0.829 |
| GACGATTTGGGGACTGGAGACGTGCTA | -0.196 |
| GACGAACTGAGTTTCGACACGTGCTAG | 5.41 |
| GACGGACTGGTGTTTCGGGACGTGCTA | 1.18 |
| GACGGTTTCGGTATCGGGTCGTGCTAG | 10.5 |
| GACGATATCAGTTTTGAGACGTGCTAG | 1.29 |
| CACGGACTGCTTATCCTGACGTGCTAG | -0.62 |
| TTAGACTTCAGTCTCGATTAGTGCTAG | 0.572 |
| AAACCTCACAGTTTGTAAATGTGCTAG | 0.0532 |
| GGCGGTTTCGACACTGGGGACGTGCTA | 4.61 |
| TCATATTGCTTTCTCTTACTGTGCTAG | 2.57 |
| CAGCACATGCATCTCCCACAGTGCTAG | -0.457 |

Some of these lines once more (block 3):
| Change | binding fitness |
| --- | --- |
| T48I | -1.6 natural log |
| Q55E | -1.5 natural log |
| K36H | -1.44 natural log |
| A57G | -1.45 natural log |
| L31W | -1.64 natural log |
| A49R | -1.24 natural log |
| E44T | -1.51 natural log |
| S47E | -1.56 natural log |
